Measured values of several laboratories.
Every numbered part comes from another study and shows a few of its results, in no order. Substitutions count along the parent as printed.

Sample 1 — technique: universal PBM; form: double-stranded DNA, one strand shown; medium: in vitro; tested at: 600 nM; reading: higher = stronger binding; measurement: E-score
Target: Sal-like protein 4, full length isoform A (SALL4, Homo sapiens, UniProt Q9UJQ4, residues 1-1053)
Chain of UniProt Q9UJQ4 (whole entry, looked up): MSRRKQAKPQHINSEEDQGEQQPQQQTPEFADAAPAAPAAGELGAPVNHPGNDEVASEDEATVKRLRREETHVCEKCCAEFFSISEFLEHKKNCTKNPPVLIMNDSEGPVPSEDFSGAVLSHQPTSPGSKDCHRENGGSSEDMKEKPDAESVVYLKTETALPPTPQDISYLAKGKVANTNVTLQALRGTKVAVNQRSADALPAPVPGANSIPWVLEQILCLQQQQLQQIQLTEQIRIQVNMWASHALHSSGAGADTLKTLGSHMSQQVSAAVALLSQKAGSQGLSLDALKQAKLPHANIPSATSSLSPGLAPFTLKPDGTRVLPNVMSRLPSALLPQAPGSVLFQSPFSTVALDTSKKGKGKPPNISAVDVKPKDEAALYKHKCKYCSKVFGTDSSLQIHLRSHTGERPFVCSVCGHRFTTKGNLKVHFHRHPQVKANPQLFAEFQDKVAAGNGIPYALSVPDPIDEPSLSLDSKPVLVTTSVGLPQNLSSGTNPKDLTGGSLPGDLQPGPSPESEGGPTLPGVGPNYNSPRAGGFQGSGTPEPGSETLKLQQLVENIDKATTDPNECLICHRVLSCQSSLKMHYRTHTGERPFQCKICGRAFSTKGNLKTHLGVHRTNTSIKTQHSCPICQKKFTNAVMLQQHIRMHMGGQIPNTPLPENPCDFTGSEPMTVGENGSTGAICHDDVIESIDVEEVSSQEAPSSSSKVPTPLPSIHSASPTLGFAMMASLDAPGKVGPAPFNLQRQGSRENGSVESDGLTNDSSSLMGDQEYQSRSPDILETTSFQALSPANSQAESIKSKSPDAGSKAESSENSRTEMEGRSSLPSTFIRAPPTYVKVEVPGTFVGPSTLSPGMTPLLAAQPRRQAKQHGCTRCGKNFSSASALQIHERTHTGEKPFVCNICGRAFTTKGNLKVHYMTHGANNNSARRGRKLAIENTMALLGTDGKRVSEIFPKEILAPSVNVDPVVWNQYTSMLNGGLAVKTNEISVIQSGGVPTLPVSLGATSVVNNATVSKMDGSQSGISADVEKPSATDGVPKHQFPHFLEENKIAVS
Notes: 8-mer, flanks averaged, mean of replicates
ACATGCTG: -0.103
ATTAAGCC: 0.164
CTAGCGAG: -0.315
GCCATAAA: 0.195
TATGAACA: 0.328
GCAGTTTA: 0.0573
CTGGCTTC: -0.226
GCAGGAGA: -0.0689
CTGTCCTC: -0.215
AACTGCTT: -0.0532
AAGTTTAA: 0.144
CGCCATAA: 0.127
ACGGCAGC: -0.199
CGACATCA: -0.0243
GGAAGGCA: -0.179
CATGAGCG: -0.181
TCGTGCAA: 0.198
CTGAAGCC: -0.162
CGGCCGGA: -0.231
TACCTAGA: 0.118
ACTGGCTC: -0.245

Sample 2 — technique: RNA Bind-n-Seq; form: RNA; medium: in vitro; tested at: 365 nM; baseline: no-protein control; reading: higher = stronger binding; measurement: RBNS enrichment (R)
Target: RNA binding protein fox-1 homolog 2, RRM domain, GST-SBP tag (RBFOX2, Homo sapiens, UniProt O43251-10, residues 100-194)
Notes: natural RNA segment, single round, ends assumed
Shared flanks, not repeated: GGGAGUUCUACAGUCCGACGAUC … UGGAAUUCUCGGGUGCCAA
Construct (chain): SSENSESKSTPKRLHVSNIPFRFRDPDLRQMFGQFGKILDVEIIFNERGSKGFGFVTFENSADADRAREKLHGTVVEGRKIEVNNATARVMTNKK
CAGCAACGAGUACCUUCUCCCGCCUUGCCUCAGCGUAGAAGGGCUGCACUCUUGGCUGGUGUGAGUCAGCUACAGAGAAGGUAAUACGCCAUGUGGGAGGCCAAGGAGGC: 0.527
CUUUUUCUUUUACUUAAUGAACAUGUGAUAUGAGUAGUGAUGUGCAAAAGCACAGACGUUCAUGUUUUCUAUCAUGUAAAAUCCUGUAGUUAAGCUGUAUAUUAGCAGUG: 0.287
GGGAGACUCAGCCUUCCUCCUCAUCCUCCCUGACCCUGCUCCUAGCACCCUGGAGAGUGCACAUGCCCCUUGGUCCUGGCAGGGCGCCAAGUCUGGCACCAUGUUGGCCU: 0.547
ACUGACUUACUAAUGCAGCAGGGACUUUUAUCACUGAGUAUUAUGACAGUGUGCAUCACCUCUGGGCCAAGGACAAGCCAUUGAUCUAAAUGCCUCAGAUGCCCGGGAGG: 0.445
UUUUCUGGGUGGUGGUGGCAAGGGUCUAUGUCAGGGUUCAAGUUACUAAAGGUUUUACUGUCAUAAUUUAAAGGGGACUCUUCACGACCCGUCACAAUAAACCAUUCUCA: 0.373
CCACCAGCCGUUCCUGAUCUCAGGAGCCUUGAAGGGCUGGGCUCUUGCCUUCCUGGAGUAAAUAUUGGCACAGAUUUCAUUUGAGAGAACUCAGCCCCCUGGUCUAAGCU: 0.491
GUGACAACUUCUGGGCCCAGGAGUAAUUUCUCAGCAUUGAGGGUAAAAUAGGAUGGAGUGCUCUGUUGAUCAUUUGGGAGAUGUAGGUUACCUGAUUUGUGCCUUAGGAU: 1.19
UACAUUUCACAUUUUGUAUUUUUUUUUAUGUGUGUGUGUCUGUAUUCUGGUGUUUGUAACACCAAAGUGGAAAAUACAGCCCAUGGCAUGGGUGCUGUGAAGUUGAGAUG: 1.5
GGCUCUGGUUCAAUAAGCAGUCACCCAAAGUAAAGACUCUAUCUUGAAAGGCUUUUGGUGAAAAUGAAGGGAUUUCAUUUGAAAUUACAGCAUGAUGAAUUUUGCAUGGG: 27.3
CCCGCUUCCCCAGUCUUUAAACAUUGGACGCUAUUUACUCAGCUACCCAGUAGAGCUUGAAGCUGACCUUUCUGAGAAGUUGGUAUGGUGUAACACUAAAGUAGGUGGUU: 0.336
ACGUGCGCAGGAAGGGCUCCUCUUAGAGAAGCAGCCAAACUGUGAAGCACUAAGCUGACCCUGCUUCAAGCAAUUUUGUUUUUACAACUGUUCCUUUCACAAGCAAGCCU: 0.304
ACACAAGGGCCUUGGCUUUGUUGAGACAGAGCCUGUGCUGGCACUUGCUGUUAGGGUAGGAAGAGGCACAAAGAGGACCCCGGUAGCGGUGAUCUGUGGCCUUCUGUGGG: 0.319

Sample 3 — target: CCNA2, cyclin fold, Cln2 fusion (human); technique: yeast growth competition, sequencing; medium: yeast; notes: strong parent motif; baseline: not given; reading: higher = stronger binding; measurement: normalised enrichment score
Parent: RBL2 docking peptide (human); STTRRRLFVENDS; partner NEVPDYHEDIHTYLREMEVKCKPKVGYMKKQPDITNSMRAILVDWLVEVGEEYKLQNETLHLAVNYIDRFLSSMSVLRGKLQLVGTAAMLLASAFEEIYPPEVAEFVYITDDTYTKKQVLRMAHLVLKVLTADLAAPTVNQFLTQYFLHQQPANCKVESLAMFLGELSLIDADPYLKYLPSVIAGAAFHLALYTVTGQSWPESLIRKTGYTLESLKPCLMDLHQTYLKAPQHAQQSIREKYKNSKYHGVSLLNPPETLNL
STTRHRLFVENDS [R5H]: 1.09
STDRRRLFVENDS [T3D]: 0.359
STTRRRIFVENDS [L7I]: 0.627
STTRRRLFVENMS [D12M]: 5.1
STTRRRLFVGNDS [E10G]: 5.42
STTRRRLFVENNS [D12N]: 5.18
ITTRRRLFVENDS [S1I]: 4.95
STTRRRLFVEKDS [N11K]: 5.48
STTRRFLFVENDS [R6F]: 0.877
ATTRRRLFVENDS [S1A]: 5.01
STTRRRWFVENDS [L7W]: 0.396
STTRQRLFVENDS [R5Q]: 1.51
STTRRRLAVENDS [F8A]: 0.983
SCTRRRLFVENDS [T2C]: 5.14
STERRRLFVENDS [T3E]: 0.357
STTRRRLFRENDS [V9R]: 5.38

Sample 4 — technique: competition protein-binding microarray; form: double-stranded DNA, one strand shown; medium: in vitro; tested at: 2 µM; together with: Pho4 competitor, 0.05 µM; reading: higher = stronger binding; measurement: fluorescence intensity; shared flanks, not repeated: … GTCTTGATTCGCTTGACGCTGCTG
Target: Centromere-binding protein 1, full length, His-tagged (CBF1, Saccharomyces cerevisiae, UniProt P17106, residues 1-351)
Chain of UniProt P17106 (whole entry, looked up): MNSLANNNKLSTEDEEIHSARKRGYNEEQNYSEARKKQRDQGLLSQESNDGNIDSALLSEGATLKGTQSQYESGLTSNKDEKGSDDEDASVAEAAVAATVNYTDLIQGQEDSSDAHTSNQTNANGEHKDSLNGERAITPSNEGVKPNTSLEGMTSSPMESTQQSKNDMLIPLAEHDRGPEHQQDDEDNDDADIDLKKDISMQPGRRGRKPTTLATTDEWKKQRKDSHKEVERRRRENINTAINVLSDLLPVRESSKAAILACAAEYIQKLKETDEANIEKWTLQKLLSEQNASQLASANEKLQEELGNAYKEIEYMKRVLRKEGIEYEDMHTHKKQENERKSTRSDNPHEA
Notes: whole 60-bp probe, lowest competitor level
GTACTGGCTGAGCCGGTCGTGCCGAAAATGAAAATA: 81.2 a.u.
CATACCCAACCTTGCTCCGTGGGTGAAGATATTTGT: 60 a.u.
TGTGTTCTAGGCTTGAACGTGCCAGCAGCATATCGA: 76.4 a.u.
ACCAAATGTGGAAATGGCATGACAACCCCCCAGACA: 124 a.u.
GACGCCAAGTCCCATCACGTGGTTACGATGTATCGG: 3500 a.u.
GTCTTGTCTCATTGTAAGGTGGGTGTCCCCACTTCA: 85.9 a.u.
GTCTTGTCTCATTGTCACTAGACTTTCCCCACTTCA: 94.7 a.u.
CTATCCCTAGATTTCGTCGTGCCGAGACCCAAATAG: 67.5 a.u.
CTTCTCTAGGTTATGTTCATGCCCTTGCTCATCAAC: 65.4 a.u.
GTCAATCGATTGGATCAGGTGAGGAAGTACTCAGCG: 323 a.u.
GAGAACGCAGAGGACAACGTGGCCGTTGGGTTGATA: 73 a.u.
GTCTTGTCTCATTTTCACGTGTCTTTCCCCACTTCA: 887 a.u.

Sample 5 — technique: DHFR PCA, dose-response; medium: yeast; notes: Hill fit, mean, not affinity; together with: (+)-ABA, dose series; reading: lower = more sensitive; measurement: ABA EC50
Target: ABI1, truncated, D143A, DHFR fusion (Arabidopsis thaliana, UniProt P49597)
Parent: PYL1, truncated, DHFR fusion (Arabidopsis thaliana, UniProt Q8VZS8); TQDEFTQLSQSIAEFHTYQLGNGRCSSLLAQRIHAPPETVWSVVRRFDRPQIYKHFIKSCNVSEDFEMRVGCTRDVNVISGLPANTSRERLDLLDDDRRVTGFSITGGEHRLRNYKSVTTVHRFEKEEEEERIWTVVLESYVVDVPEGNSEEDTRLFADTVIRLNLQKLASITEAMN
E147S: 3.09 µM
L93T: 4.4 µM
P37D: 26.1 µM
S104A: 43 µM
T106A: 38.3 µM
G108R: 529 µM
R99I: 535 µM
L93N: 67.7 µM
G21W: 8.05 µM
I57N: 468 µM
Q7M: 1.68 µM
L8T: 54.4 µM
S9F: 11.3 µM
D3R: 3.75 µM

Sample 6 — technique: protein-binding microarray; form: hairpin DNA; medium: in vitro; tested at: not given; baseline: not given; reading: higher = stronger binding; measurement: median fluorescence
Target: Cellular tumor antigen p53, full length (TP53, Homo sapiens, UniProt P04637, residues 1-393)
Notes: whole hairpin DNA, median over replicate spots
CCACACGTGGTGCGATGCCTTCCTAGGCATCGCACCACGTGTGGACACTC (5mC at 31): 5000 a.u.
CGGACATGCCCGGGCTTGTCTCCTGACAAGCCCGGGCATGTCCGACACTC: 15300 a.u.
CGGACATGCCCCGGCATGTCTCCTGACATGCCGGGGCATGTCCGACACTC (5mC at 12): 16400 a.u.
CGGACATGCCCGGCCATGTCTCCTGACATGGCCGGGCATGTCCGACACTC: 9780 a.u.
CCACACGTGCGGGCATGCCTTCCTAGGCATGCCCGCACGTGTGGACACTC (5mC at 10): 11800 a.u.
CGGACATGCGCGGGCATGTCTCCTGACATGCCCGCGCATGTCCGACACTC (5mC at 9 35): 14500 a.u.
CCACACGTGGTGCCATGCCTTCCTAGGCATGGCACCACGTGTGGACACTC: 4690 a.u.
CGGACATGCCCTGGCATGTCTCCTGACATGCCAGGGCATGTCCGACACTC: 14400 a.u.
CGGACATGCCCGGGGATGTCTCCTGACATCCCCGGGCATGTCCGACACTC: 9480 a.u.
CGGACATGCCCGGGTATGTCTCCTGACATACCCGGGCATGTCCGACACTC: 9820 a.u.
CCACACGTGTTGGCATGCCTTCCTAGGCATGCCAACACGTGTGGACACTC: 7830 a.u.
CCACGCGTGGTGGCATGCCTTCCTAGGCATGCCACCACGCGTGGACACTC (5mC at 4): 8060 a.u.
CGGACATGCCCCGGCATGTCTCCTGACATGCCGGGGCATGTCCGACACTC (5mC at 32): 13100 a.u.
CCACACGTGGTGCGATGCCTTCCTAGGCATCGCACCACGTGTGGACACTC (5mC at 13 31): 5090 a.u.
CGGACACGCCCGGGCATGTCTCCTGACATGCCCGGGCGTGTCCGACACTC (5mC at 7 37): 16800 a.u.
CCACACGTAGTGGCATGCCTTCCTAGGCATGCCACTACGTGTGGACACTC: 7760 a.u.

A few entries again (sample 2):
ACACAAGGGCCUUGGCUUUGUUGAGACAGAGCCUGUGCUGGCACUUGCUGUUAGGGUAGGAAGAGGCACAAAGAGGACCCCGGUAGCGGUGAUCUGUGGCCUUCUGUGGG: 0.319
ACUGACUUACUAAUGCAGCAGGGACUUUUAUCACUGAGUAUUAUGACAGUGUGCAUCACCUCUGGGCCAAGGACAAGCCAUUGAUCUAAAUGCCUCAGAUGCCCGGGAGG: 0.445
UUUUCUGGGUGGUGGUGGCAAGGGUCUAUGUCAGGGUUCAAGUUACUAAAGGUUUUACUGUCAUAAUUUAAAGGGGACUCUUCACGACCCGUCACAAUAAACCAUUCUCA: 0.373
UACAUUUCACAUUUUGUAUUUUUUUUUAUGUGUGUGUGUCUGUAUUCUGGUGUUUGUAACACCAAAGUGGAAAAUACAGCCCAUGGCAUGGGUGCUGUGAAGUUGAGAUG: 1.5
CCACCAGCCGUUCCUGAUCUCAGGAGCCUUGAAGGGCUGGGCUCUUGCCUUCCUGGAGUAAAUAUUGGCACAGAUUUCAUUUGAGAGAACUCAGCCCCCUGGUCUAAGCU: 0.491
GGGAGACUCAGCCUUCCUCCUCAUCCUCCCUGACCCUGCUCCUAGCACCCUGGAGAGUGCACAUGCCCCUUGGUCCUGGCAGGGCGCCAAGUCUGGCACCAUGUUGGCCU: 0.547
GUGACAACUUCUGGGCCCAGGAGUAAUUUCUCAGCAUUGAGGGUAAAAUAGGAUGGAGUGCUCUGUUGAUCAUUUGGGAGAUGUAGGUUACCUGAUUUGUGCCUUAGGAU: 1.19
ACGUGCGCAGGAAGGGCUCCUCUUAGAGAAGCAGCCAAACUGUGAAGCACUAAGCUGACCCUGCUUCAAGCAAUUUUGUUUUUACAACUGUUCCUUUCACAAGCAAGCCU: 0.304
CUUUUUCUUUUACUUAAUGAACAUGUGAUAUGAGUAGUGAUGUGCAAAAGCACAGACGUUCAUGUUUUCUAUCAUGUAAAAUCCUGUAGUUAAGCUGUAUAUUAGCAGUG: 0.287
CAGCAACGAGUACCUUCUCCCGCCUUGCCUCAGCGUAGAAGGGCUGCACUCUUGGCUGGUGUGAGUCAGCUACAGAGAAGGUAAUACGCCAUGUGGGAGGCCAAGGAGGC: 0.527
GGCUCUGGUUCAAUAAGCAGUCACCCAAAGUAAAGACUCUAUCUUGAAAGGCUUUUGGUGAAAAUGAAGGGAUUUCAUUUGAAAUUACAGCAUGAUGAAUUUUGCAUGGG: 27.3
CCCGCUUCCCCAGUCUUUAAACAUUGGACGCUAUUUACUCAGCUACCCAGUAGAGCUUGAAGCUGACCUUUCUGAGAAGUUGGUAUGGUGUAACACUAAAGUAGGUGGUU: 0.336
